Experimental data gathered from unrelated publications.
Lines come from different studies, so protocols differ. Values joined by “and” are separate records of one study, mostly repeats; a detail may differ. ± marks the error that the study gave.

Compound	target or system	assay	system	conditions	scale	quantity	value
O=C(Nc1nc2cccc(-c3ccc(CN4CCS(=O)(=O)CC4)cc3)n2n1)C1CC1		refers to: metabolism and nutrition disorders	human rheumatoid arthritis patients	oral, 150 mg once daily, 4 weeks, regardless of relatedness		treatment-emergent adverse events	0%
Cc1nc2ccc(F)cc2n1-c1nc(N)c(F)c(Nc2ccc(C(F)(F)F)cc2)n1			leiomyosarcoma patients	400 mg twice weekly, with: dacarbazine 1000 mg/m^2	baseline: subjects	myelosuppression-related DLT	75%
CSCC[C@H](N)C(=O)N[C@@H](CC(C)C)C(=O)N[C@@H](CCCNC(=N)N)C(=O)N[C@@H](Cc1c[nH]c2ccccc12)C(=O)N[C@@H](CO)C(=O)N[C@@H](CCCNC(=N)N)C(=O)N[C@@H](CCCCN)C(=O)N[C@@H](CC(C)C)C(=O)N1CCC[C@H]1C(=O)N[C@@H](CS)C(=O)N[C@H](C(=O)N[C@@H](CO)C(N)=O)C(C)C		12G5 competition, SUP-T1 cells	human plasma	20 µM, 8 h, 37 °C		remaining activity	2 ± 0.3%
Cc1cn(C(=O)c2c(-c3c(Cl)cc(Cl)cc3Cl)noc2C(C)(C)F)c2cccc(/C=C/C(=O)O)c12			human patients	700 mg bid, cycle 8 day 1		AUC(0-8h)	239 µg·h/mL
CC(C)C(=O)O[C@H]1[C@H](C)OC(=O)[C@@H]1Cc1ccccc1		soil adsorption	clay loam soil	pH 6.8, organic carbon 0.5 %		KFoc	452 mL/g
CNC(=O)c1ccc(-c2cnc3ncc(Cc4ccc5ncccc5c4)n3n2)cc1F		refers to: Cough	gastric cancer patients	oral, 600 mg twice daily, expansion cohort, grade 3-4		patients with adverse event	0%
COC(=O)N[C@@H](C)CNc1nccc(-c2cn(C(C)C)nc2-c2cc(Cl)cc(NS(C)(=O)=O)c2F)n1			human, plasma	oral, 50 mg, single dose, geometric mean, with: posaconazole	baseline: compound alone	AUCinf increase	~183% and ~180% and 183%
CCc1cc2ncc(CN3CCN(c4ccc(C(=O)NC)nc4)CC3)cc2[nH]c1=O			male rat, blood	oral, 5 mg/kg/day, 4 weeks	baseline: vehicle control	Lymphocytes count ratio	0.71
COc1cc(C(=O)N2CCC3(CC2)CC(=O)c2c(cnn2C(C)C)C3)cc(-c2ccc(C(=O)O)cc2)n1		refers to: total cholesterol	human, fasting serum	3 mg every 12 h, day 13, adjusted geometric mean	baseline: baseline	percentage change from baseline	-0.4%
C=CCn1c(=O)c2cnc(Nc3ccc(N4CCN(C)CC4)cc3)nc2n1-c1cccc(C(C)(C)O)n1			human patients	oral, 300 mg once daily, day 17, cycle 1, with: durvalumab 1500 mg iv		AUC(0-10 h)	7.98 µM·h
Cn1cc(Nc2nccc(-c3ccc4c(c3)CN(C3COC3)CC[C@H]4NC(=O)c3cn(C(C)(C)C)nn3)n2)cn1			human, whole blood	150 mg twice daily, day 14	baseline: pre-dose baseline	CD3+ T cell count change	-1.42%
Cc1ccc([C@@H]2O[C@H](CO)[C@@H](O)[C@H](O)[C@H]2O)cc1Cc1ccc(-c2ccc(F)cc2)s1			Japanese type 2 diabetes patients	200 mg, day 5, 24 h urine collection	baseline: baseline	urinary sodium excretion change	-1.23 mEq
N#Cc1ccc2c(c1)[C@H]1CCCN(C(=O)c3ccc4[nH]cnc4c3)[C@H]1C2			human	360 mg, day 15	baseline: baseline	cortisol level change	85 nmol/L
CN1CCN(C(=O)c2ccc(C3CCCCC3)cc2)CC1		liver microsome stability	cynomolgus liver microsomes	1 µM		hepatic clearance	36 mL/min/kg
CC(C(=O)NCC(=O)NCC(CNC(=O)CNC(=O)C(C)N1CCN(CC(=O)[O-])CCN(CC(=O)[O-])CCN(CC(=O)[O-])CC1)(CNC(=O)CNC(=O)C(C)N1CCN(CC(=O)[O-])CCN(CC(=O)[O-])CCN(CC(=O)[O-])CC1)CNC(=O)CNC(=O)C(C)N1CCN(CC(=O)[O-])CCN(CC(=O)[O-])CCN(CC(=O)[O-])CC1)N1CCN(CC(=O)[O-])CCN(CC(=O)[O-])CCN(CC(=O)[O-])CC1.[Gd+3].[Gd+3].[Gd+3].[Gd+3] (centres unmarked)		LA-ICP-MS, refers to: subcortical Gd layer	rat, femur	0.6 mmol Gd/kg, 1 week		Gd bone distribution	not detected
CCOc1c([C@H](C)n2nc(C)c3c(N)ncnc32)cc(Cl)c(F)c1[C@@H]1CNC(=O)C1			patients, monotherapy	oral, 45 mg once daily, cycle 1 day 15		Cmin	0.864 ± 0.69 µM
O=C(Cn1ccnc1)Nc1ccc([C@H]2[C@@H](F)[C@@H](F)C[C@@H](F)[C@H]2F)cc1			mouse liver microsomes	1 µM		hepatic clearance	15 mL/min/kg
CC(C)Nc1nc2cc(Cl)c(Cl)cc2n1[C@H]1O[C@@H](CO)[C@H](O)[C@@H]1O		population PK model	human	oral, 70 kg body weight		Vp/F	7.1 L
CC(C(=O)Nc1ccc(C2CCCCC2)cc1)n1cncn1 (centres unmarked)			mouse liver microsomes	1 µM		hepatic clearance	72 mL/min/kg
COc1ccc2cc(CCC[18F])ccc2c1		gel filtration	human plasma	30 min, 37 °C		fu	0.212
O=C(O)CCCOc1ccc([18F])cc1-c1cc(-c2ccccc2C(F)(F)F)n(-c2ccccc2)n1		18F biodistribution	male ddY mouse, whole blood	intravenous, 2.1 MBq, 15 min		blood radioactivity	0.12 ± 0.01 SUV
CC(=O)N1CC(C(=O)Nc2ccc(C3CCCCC3)cc2)C1		liver microsome stability	human liver microsomes	1 µM, without NADPH		hepatic clearance	3.9 mL/min/kg
CC(C)(C)NC(=O)C1CCN(Cc2cccc(/N=N/c3ccccc3F)c2)CC1			DMSO	25 µM, 25 °C		absorption maximum, cis isomer	430 nm
OC[C@H]1O[C@@H](c2ccc(Cl)c(Cc3ccc(O[C@H]4CCOC4)cc3)c2)[C@H](O)[C@@H](O)[C@@H]1O			Japanese type 1 diabetes patients, blood	10 mg, day 28	baseline: baseline	change in Potassium	-0.1 mEq/L
CCOCc1nc(O)c(-c2nnc(Cc3ccc(Cl)cn3)o2)c(O)c1-c1c(OC)cccc1OC			anaesthetized rats, plasma	intravenous infusion, 100 µg/kg/min for 15 min, 20 min washout		plasma concentration	9.88 ± 0.488 µM

Compound	target or system	assay	system	conditions	scale	quantity	value
CC(C)c1nc(N(C)S(C)(=O)=O)nc(-c2ccc(F)cc2)c1/C=C/[C@@H](O)C[C@@H](O)CC(=O)O		refers to: oropharyngeal pain	healthy men	oral, dose not given, 8 days, treatment-emergent, crossover trial		subjects with adverse event	0%
CC(C)C[C@H](NC(=O)C[C@H](O)[C@H](CC(C)C)NC(=O)[C@H](Cc1c[nH]cn1)NC(=O)CNC(=O)[C@@H](NC(=O)[C@H](C)NC(=O)[C@H](Cc1c[nH]c2ccccc12)NC(=O)[C@H](CCC(N)=O)NC(=O)[C@@H](Cc1ccccc1)NC(=O)COCCOCCNC(=O)CCC(C(=O)O)N1CCN(CC(=O)O)CCN(CC(=O)O)CCN(CC(=O)O)CC1)C(C)C)C(N)=O (some centres unmarked) [lutetium-177 labelled]			female BALB/c nu/nu mice, blood	intravenous, 50 pmol, 24 h		tissue uptake	0.008 ± 0.005 %ID/g
Cc1cc(Nc2ccc(S(F)(F)(F)(F)F)cc2)n2nc(C(C)(F)F)nc2n1	Plasmodium vivax	12-lead Holter ECG	human malaria patients	oral, 800 mg, QTc above 450 ms		patients with QTcB above threshold	33.3%
CC(C)(C(=O)N1CCOc2c(C#N)cncc2C1)C(F)F		refers to: haematochezia	human, both sexes	oral, 15 mg twice daily, 14 days, multiple ascending dose		subjects with TEAE	0%
CNCc1ccc(-c2[nH]c3cc(F)cc4c3c2CCNC4=O)cc1			human patients	oral, 240 mg twice daily, all grades		pulmonary embolism incidence	0%
CN[C@H](CC(C)C)C(=O)N[C@H]1C(=O)N[C@@H](CC(N)=O)C(=O)N[C@H]2C(=O)N[C@H]3C(=O)N[C@H](C(=O)N[C@H](C(=O)O)c4cc(O)cc(O)c4-c4cc3ccc4O)[C@H](O)c3ccc(c(Cl)c3)Oc3cc2cc(c3O[C@@H]2O[C@H](CO)[C@@H](O)[C@H](O)[C@H]2O[C@H]2C[C@](C)(N)[C@H](O)[C@H](C)O2)Oc2ccc(cc2Cl)[C@H]1O			guinea pig	intraperitoneal, 15 mg/kg, single dose	baseline: tissue cage fluid over serum	half-life ratio	~5
CC(=O)O[C@H]1C(=O)[C@@]2(C)[C@H]([C@H](OC(=O)c3ccccc3)[C@]3(O)C[C@H](OC(=O)[C@H](O)[C@@H](NC(=O)c4ccccc4)c4ccccc4)C(C)=C1C3(C)C)[C@]1(OC(C)=O)CO[C@@H]1C[C@@H]2O		refers to: Dysgeusia	patients with advanced solid tumours	intravenous, dose not given, grade 1 and 2, possibly related to drug		adverse event incidence	28%
C=CC(=O)NC1CCN(c2ncc3ncnc(Nc4ccc(Oc5ccc6c(c5)ncn6C)c(C)c4)c3n2)CC1			healthy male humans, plasma	oral, dose not given, with: carbamazepine	baseline: with over without carbamazepine	AUC(0-tz) ratio	37.8%
C=CC(=O)Nc1cc(Nc2nccc(-c3cn(C)c4ccccc34)n2)c(OC)cc1N(C)CCN(C)C		storage stability	human dried blood spot	2 h, on ice, MQC level		recovery	86.3%
COc1ccc2nccc(N3CCc4c(cc(Cn5ccnc5)cc4-c4cn(C)nc4C(F)(F)F)C3=O)c2c1			CD-1 mouse, male, plasma	oral, 10 mg/kg		AUC extrapolated	0.8%
NC(=O)N1c2ccccc2CC(O)c2ccccc21 (centres unmarked)		population PK modelling	human patients, plasma	dose not given, weight-scaled, no back-conversion		volume of distribution	20 L
N#CCC(=O)Nc1ccc([C@H]2[C@@H](F)[C@@H](F)C[C@@H](F)[C@H]2F)cc1		hepatocyte stability	cryopreserved mouse hepatocytes	1 µM		hepatic clearance	46 mL/min/kg
CO[C@H]1C[C@@H]2CC[C@@H](C)[C@@](O)(O2)C(=O)C(=O)N2CCCC[C@H]2C(=O)O[C@H]([C@H](C)C[C@@H]2CC[C@@H](OC(=O)NCCOCCOCCOCCOCCOCCOCCOCCOCCC(=O)N3CCc4cc(Cn5nc(-c6ccc7oc(N)nc7c6)c6c(N)ncnc65)ccc4C3)[C@H](OC)C2)C[C@@H](O)[C@H](C)/C=C(\C)[C@@H](O)[C@@H](OC)C(=O)[C@H](C)C[C@H](C)/C=C/C=C/C=C/1C			human patients, plasma	intravenous, 16 mg, cycle 1 day 15, weekly dosing		Tmax	0.5 h
N#Cc1ccc2c(c1)[C@H]1CCCN(C(=O)c3ccc4[nH]cnc4c3)[C@H]1C2			human, plasma	80 mg once daily, day 28		pre-dose plasma concentration	1740 nmol/L
Cc1ccc(Sc2ccccc2N2CCNCC2)c(C)c1		refers to: Thirst	healthy adult women	oral, 10 mg daily, 12 days		participants with TEAE	16.7%
Cc1ccc(CCC(=O)Nc2nnc(S(N)(=O)=O)s2)cc1			mouse, plasma			unbound fraction	0.35
O=C(N[C@H](Cc1c[nH]c2ccccc12)C(=O)Nc1ccncc1)c1ccc(-c2ccc(F)c(Cl)c2)cc1F			Swiss Webster mouse, female, liver	oral, 50 mg/kg, 2 h, 20% Kolliphor vehicle		concentration	42.8 µM
C[C@@H](Nc1cc(F)cc(F)c1)c1cc(C(=O)N(C)C)cc2c(=O)cc(N3CCOCC3)oc12			advanced solid tumour patients	oral, 60 mg twice daily, continuous monotherapy		dose reduction due to AE	0%
CC(C)(c1ccc(O)cc1)c1ccc(O)cc1			whole cow milk	20 nM nominal		dose fraction in skim milk	56.9%
COc1ncc(-c2nc3c(n2C(C)C)[C@H](c2ccc(Cl)cc2)N(c2cc(Cl)cn(C)c2=O)C3=O)c(OC)n1			human patients, plasma	oral, 25 mg, high-dose arm, cycle 1 day 1		median Tmax	2.1 h
Cn1cc(-c2ccc(-c3cncc(Cl)c3N3CCC4(CCNC4=O)CC3)cc2)cn1	COLO 205	gene expression, microarray, refers to: IFIT1 mRNA		concentration not given, 6 h	baseline: untreated cells	log2 fold change	2.53
CCCCC1=NC2(CCCC2)C(=O)N1Cc1ccc(-c2ccccc2S(=O)(=O)Nc2noc(C)c2C)c(COCC)c1			healthy adult volunteers, plasma	oral, 400 mg, single dose, fasted, crushed tablet		Cmax	6970 ng/mL
NC1(C(=O)N[C@@H](CCO)c2ccc(Cl)cc2)CCN(c2nc[nH]c3nccc2-3)CC1			metastatic CRPC patients	480 mg b.i.d., any grade, treatment-related, with: enzalutamide 160 mg daily		incidence of maculopapular rash	40%
O=C(NCCc1cccnc1)c1ccc([C@H]2[C@@H](F)[C@@H](F)C[C@@H](F)[C@H]2F)cc1		liver microsome stability	cynomolgus liver microsomes	1 µM		hepatic clearance	27 mL/min/kg
Cn1cc(-c2cn3nccc3c(-c3cnn([C@]4(CC#N)C[C@@H](C#N)C4)c3)n2)cn1			healthy humans fed, plasma	oral, 100 mg once daily, day 10, geometric mean	baseline: day 10 over day 1	observed accumulation ratio	1.1

Some of these lines once more:
Compound	target or system	assay	system	conditions	scale	quantity	value
CC(=O)O[C@H]1C(=O)[C@@]2(C)[C@H]([C@H](OC(=O)c3ccccc3)[C@]3(O)C[C@H](OC(=O)[C@H](O)[C@@H](NC(=O)c4ccccc4)c4ccccc4)C(C)=C1C3(C)C)[C@]1(OC(C)=O)CO[C@@H]1C[C@@H]2O		refers to: Dysgeusia	patients with advanced solid tumours	intravenous, dose not given, grade 1 and 2, possibly related to drug		adverse event incidence	28%
COC(=O)N[C@@H](C)CNc1nccc(-c2cn(C(C)C)nc2-c2cc(Cl)cc(NS(C)(=O)=O)c2F)n1			human, plasma	oral, 50 mg, single dose, geometric mean, with: posaconazole	baseline: compound alone	AUCinf increase	~183% and ~180% and 183%
NC1(C(=O)N[C@@H](CCO)c2ccc(Cl)cc2)CCN(c2nc[nH]c3nccc2-3)CC1			metastatic CRPC patients	480 mg b.i.d., any grade, treatment-related, with: enzalutamide 160 mg daily		incidence of maculopapular rash	40%
